Measurements of several laboratories.
Compare with care: the assays were run in different laboratories.

CC(C)[C@@H](CN1CC[C@@](C)(c2cccc(O)c2)[C@@H](C)C1)NC(=O)[C@@H]1Cc2ccc(O)cc2CN1C — result for “reversal of U-50488 diuresis”: -25% (kappa opioid receptor; antagonist; Long-Evans rat; subcutaneous, 30 mg/kg, 1 week after dosing, with: U-50488; reference: U-50488 alone).
The Emax of COc1nc(NC(C)C)nc(NC(C)C)n1 is reported as 65.5% (FXR; Shp mRNA induction, agonist, qPCR, measured: Shp; Oryzias latipes, larvae; 10 µM, 48 h; reference: maximal induction by reference agonist).
Under BChE activity, O=C1C[C@@H](c2ccc(O)cc2)Oc2cc(O)cc(O)c21 is recorded as “no effect” (butyrylcholinesterase; rat liver microsomes; concentration not given, with: NADPH).
For NCCc1ccccc1, the ΔTm was 2.28 °C (SAR11_0271 Candidatus Pelagibacter sp.; differential scanning fluorimetry; concentration not given; higher = stronger binding).
O=C(Nc1cccnn1)N1CCN([C@@H]2CCOc3cc(C(F)(F)F)ccc32)CC1 has an inhibition of 6% (PCP; Cerep BioPrint; 20 µM).
The IC50 of COc1cc(Nc2ncc(F)c(Nc3ccc4c(n3)NC(=O)C(C)(C)O4)n2)cc(OC)c1OC is reported as > 10 µM (GABA transporter).
For c1ccc(C(NCCNC(c2ccccc2)c2ccccc2)c2ccccc2)cc1, the inhibition was 20% (SKCa potassium channel, rat; binding; 10 µM, Eurofins selectivity panel).
C[N+](C)(C)CCOP(=O)(O)O gave a thermal shift of 3.57 °C (SAR11_1346; differential scanning fluorimetry; Candidatus Pelagibacter sp.; in-house screen).
C[C@H](C(=O)N[C@H]1COc2ccccc2[C@@H]1S(C)(=O)=O)c1ccc(F)cc1 gave an inhibition of -5% (imidazoline I2 central, rat; binding; 10 µM, Eurofins selectivity panel).
With COc1ncccc1-c1cnn2ccc(N3CCN(C(=O)OC(C)C)CC3)nc12 the IC50 was 11 µM (PDE3; inhibitor).
The DC50 of CN(C)C(=O)c1cc2cnc(Nc3ccc(C(=O)NCCCCCCOc4cccc5c4C(=O)N(C4CCC(=O)NC4=O)C5=O)cc3)nc2n1C1CCCC1 (centres unmarked) is reported as 0.179 µM (N-Myc (human); degrader, immunoblotting, measured: N-Myc; SK-N-BE(2); 4 h).
N[C@@H]1C[C@H]1c1ccccc1 (racemic) gave a trans-stimulation ratio of 0.3 (human H+/organic cation antiporter; hCMEC/D3; 250 µM, 2 min, with: 1 µM DPH preloading 30 min; reference: control).
CC(=O)C1C(=O)c2ccccc2C1=O: activity “inactive” (FXR; HEK293 cells; concentration not given).
Oc1cccc(N2[C@@H]3CC[C@H]2CN(CCCc2ccccc2)C3)c1 gave an Emax of 63.3% (mu opioid receptor; Gi1 activation, agonist, TRUPATH BRET; reference: DAMGO).

Some of these lines once more:
O=C(Nc1cccnn1)N1CCN([C@@H]2CCOc3cc(C(F)(F)F)ccc32)CC1 has an inhibition of 6% (PCP; Cerep BioPrint; 20 µM).
